# Assay results pooled from the literature.
# Every numbered part comes from another study and shows a few of its results, in no order. pEC50: −log10 of the molar value.
# Sequence of UniProt Q9BXA7 (whole entry, looked up): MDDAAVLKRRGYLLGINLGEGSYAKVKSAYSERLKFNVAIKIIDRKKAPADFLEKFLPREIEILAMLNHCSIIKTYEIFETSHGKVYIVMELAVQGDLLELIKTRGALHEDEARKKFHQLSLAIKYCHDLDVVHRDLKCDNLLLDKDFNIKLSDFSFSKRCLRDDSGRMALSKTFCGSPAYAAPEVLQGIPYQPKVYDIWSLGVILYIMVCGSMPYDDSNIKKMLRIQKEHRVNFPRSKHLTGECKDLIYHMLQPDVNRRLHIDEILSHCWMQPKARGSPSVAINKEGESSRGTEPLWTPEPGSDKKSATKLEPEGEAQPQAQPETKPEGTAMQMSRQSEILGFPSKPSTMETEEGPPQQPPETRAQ
# Sequence of UniProt P53778 (whole entry, looked up): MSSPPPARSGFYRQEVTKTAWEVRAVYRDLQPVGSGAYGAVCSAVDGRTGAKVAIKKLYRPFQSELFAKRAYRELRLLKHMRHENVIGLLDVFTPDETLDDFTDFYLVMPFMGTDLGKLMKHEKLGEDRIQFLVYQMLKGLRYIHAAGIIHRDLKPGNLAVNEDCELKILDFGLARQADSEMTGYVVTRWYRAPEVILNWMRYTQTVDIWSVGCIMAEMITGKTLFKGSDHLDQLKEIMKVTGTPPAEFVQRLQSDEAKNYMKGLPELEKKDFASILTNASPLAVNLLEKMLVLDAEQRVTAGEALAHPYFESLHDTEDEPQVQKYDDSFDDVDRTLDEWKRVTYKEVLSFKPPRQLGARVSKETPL
# Sequence of UniProt P00519 (whole entry, unmodified, looked up): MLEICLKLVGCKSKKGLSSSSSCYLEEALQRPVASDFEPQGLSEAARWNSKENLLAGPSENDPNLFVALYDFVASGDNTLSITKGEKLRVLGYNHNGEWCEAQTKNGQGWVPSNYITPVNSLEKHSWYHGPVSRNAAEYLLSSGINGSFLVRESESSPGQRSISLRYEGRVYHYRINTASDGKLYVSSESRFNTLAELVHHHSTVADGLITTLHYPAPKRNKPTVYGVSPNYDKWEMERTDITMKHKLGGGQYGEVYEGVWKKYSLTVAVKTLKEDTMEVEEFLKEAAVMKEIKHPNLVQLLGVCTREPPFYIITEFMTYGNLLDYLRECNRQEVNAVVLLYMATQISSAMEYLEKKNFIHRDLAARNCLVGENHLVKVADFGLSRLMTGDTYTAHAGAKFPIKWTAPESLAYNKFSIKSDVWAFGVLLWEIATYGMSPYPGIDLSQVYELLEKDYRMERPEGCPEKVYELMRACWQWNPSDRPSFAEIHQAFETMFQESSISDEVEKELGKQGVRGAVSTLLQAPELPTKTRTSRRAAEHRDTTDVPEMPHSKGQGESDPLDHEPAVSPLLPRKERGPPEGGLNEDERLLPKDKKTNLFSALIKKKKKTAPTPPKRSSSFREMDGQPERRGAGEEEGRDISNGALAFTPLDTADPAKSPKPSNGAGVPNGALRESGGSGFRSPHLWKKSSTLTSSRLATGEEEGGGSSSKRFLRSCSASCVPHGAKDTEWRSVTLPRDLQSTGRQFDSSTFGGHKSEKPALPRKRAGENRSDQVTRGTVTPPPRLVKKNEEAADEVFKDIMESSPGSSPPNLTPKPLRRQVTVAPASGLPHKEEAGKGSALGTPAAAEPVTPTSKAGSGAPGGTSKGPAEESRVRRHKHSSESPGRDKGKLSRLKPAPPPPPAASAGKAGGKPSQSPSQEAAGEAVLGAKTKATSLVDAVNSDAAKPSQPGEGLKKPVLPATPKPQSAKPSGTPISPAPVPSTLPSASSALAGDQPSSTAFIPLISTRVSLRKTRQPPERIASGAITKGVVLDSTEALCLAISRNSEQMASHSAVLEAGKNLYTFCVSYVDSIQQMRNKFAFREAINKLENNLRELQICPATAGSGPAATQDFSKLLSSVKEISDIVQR
# Sequence of UniProt P53779 (whole entry, looked up): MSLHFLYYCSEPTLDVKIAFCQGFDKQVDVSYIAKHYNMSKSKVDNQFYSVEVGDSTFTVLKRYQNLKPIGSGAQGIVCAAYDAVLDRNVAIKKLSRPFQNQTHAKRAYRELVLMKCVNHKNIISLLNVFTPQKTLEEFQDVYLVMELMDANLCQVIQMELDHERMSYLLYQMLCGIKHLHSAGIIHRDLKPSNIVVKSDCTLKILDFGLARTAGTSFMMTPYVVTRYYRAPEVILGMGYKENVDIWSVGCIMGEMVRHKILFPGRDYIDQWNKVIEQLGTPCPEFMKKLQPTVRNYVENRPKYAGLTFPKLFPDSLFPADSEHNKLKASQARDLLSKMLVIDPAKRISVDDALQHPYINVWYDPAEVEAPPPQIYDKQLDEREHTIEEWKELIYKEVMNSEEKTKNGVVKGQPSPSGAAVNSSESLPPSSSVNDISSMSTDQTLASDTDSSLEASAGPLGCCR
# Sequence of UniProt Q00526 (whole entry, looked up): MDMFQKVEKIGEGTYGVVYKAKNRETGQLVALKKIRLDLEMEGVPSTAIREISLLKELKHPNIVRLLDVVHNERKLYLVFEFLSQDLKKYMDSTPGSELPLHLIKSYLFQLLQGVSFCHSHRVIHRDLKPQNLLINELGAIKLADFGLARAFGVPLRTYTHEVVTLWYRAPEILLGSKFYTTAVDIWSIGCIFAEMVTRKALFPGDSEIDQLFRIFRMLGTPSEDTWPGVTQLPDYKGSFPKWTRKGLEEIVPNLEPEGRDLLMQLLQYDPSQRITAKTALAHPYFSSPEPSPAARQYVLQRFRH

# Study 1
# Target: Beta-1 adrenergic receptor (ADRB1, Homo sapiens, UniProt P08588)
# Sequence of UniProt P08588 (whole entry, looked up): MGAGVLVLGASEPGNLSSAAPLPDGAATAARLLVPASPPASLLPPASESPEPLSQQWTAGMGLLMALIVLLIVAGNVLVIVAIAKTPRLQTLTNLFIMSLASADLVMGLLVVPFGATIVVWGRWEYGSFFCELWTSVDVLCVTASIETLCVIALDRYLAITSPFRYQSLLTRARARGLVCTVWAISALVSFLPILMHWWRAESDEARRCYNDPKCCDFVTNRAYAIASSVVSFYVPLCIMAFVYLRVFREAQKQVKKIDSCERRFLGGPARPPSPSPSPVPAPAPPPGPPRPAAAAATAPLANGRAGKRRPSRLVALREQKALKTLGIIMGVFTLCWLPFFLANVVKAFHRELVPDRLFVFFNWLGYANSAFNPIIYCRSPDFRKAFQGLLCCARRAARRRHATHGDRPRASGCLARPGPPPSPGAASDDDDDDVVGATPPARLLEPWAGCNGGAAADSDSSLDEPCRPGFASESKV
# Action: agonist
SMILES,pEC50
CC1(C)CC(=O)c2cc(C(=O)Nc3cccc4ccccc34)c(O)nc2C1,≤ 4.00
CCC(c1ccccc1)N1CCN(CC(C)O)CC1 (stereo not shown),≤ 4.00
CC(C)NCC(O)COc1cccc2c1N(C(=O)c1cccnc1)CCC2 (stereo not shown),≤ 4.00
COc1cc2c3c(c1)C1(C(=O)N3C(C)(C)C=C2C)C(C#N)=C(N)Oc2cc(O)ccc21 (stereo not shown),≤ 4.00
Fc1ccc(NC(=S)N[C@H]2CO[C@H]3[C@@H]2OC[C@@H]3n2nnnc2Oc2ccc(-n3cncn3)cc2)cc1,≤ 4.00
Cc1oc(C(O)c2cccc(O)c2)nc1C(=O)Nc1ccc(N2CCOCC2)cc1 (stereo not shown),≤ 4.00
O=C(c1cc(-c2cccnc2)nc2ccccc12)N1CCCC2(CCOC2)C1 (stereo not shown),≤ 4.00
COc1ccccc1N1CCC(CNC(=O)c2c[nH]c3ccccc23)C1 (stereo not shown),≤ 4.00
Cc1ccsc1-c1n[nH]c2ncc(-c3ccccc3F)nc12,≤ 4.00
c1ccc(CCCc2noc(-c3ccc(N4CCCNCC4)nc3)n2)cc1,≤ 4.00
COc1ccccc1N1CCN([C@H]2[C@@H]3OC[C@@H](O3)[C@@H](NCc3ccc(OC(F)(F)F)cc3)[C@@H]2O)CC1,≤ 4.00
Cc1oc(C(O)c2ccccc2)nc1C(=O)NCCN1CCOCC1 (stereo not shown),≤ 4.00
Cn1c(=O)cc(N2CCN(c3cccc(Cl)c3)CC2)[nH]c1=O,≤ 4.00
O=c1[nH]c2ccccc2n1C1CCN(CCOc2ccc(F)cc2)CC1,≤ 4.00
Cc1cc(-c2cc3ccccc3o2)nc2ccccc12,≤ 4.00
COc1ccc(CN(C)Cc2nc(C)no2)c(OCC(O)CN2CCCC2)c1 (stereo not shown),≤ 4.00

# Study 2
# Compound: Nc1cnc(N2CCc3cc(S(=O)(=O)Nc4c(F)cc(Cl)cc4F)cc(N4CCCC4=O)c32)nc1
# Method: competition with immobilised ligand
# Tested at: 1 µM
target,test,remaining binding
"Tyrosine-protein kinase CSK (CSK, Homo sapiens, UniProt P41240)",cell-free assay,99%
"Tyrosine-protein kinase ABL1, phosphorylated (ABL1, Homo sapiens, UniProt P00519, E255K)",binding,85%
"Myosin-IIIa (MYO3A, Homo sapiens, UniProt Q8NEV4)",cell-free assay,77%
"Tyrosine-protein kinase Fyn (FYN, Homo sapiens, UniProt P06241)",cell-free assay,58%
"Phosphorylase b kinase gamma catalytic chain, skeletal muscle/heart isoform (PHKG1, Homo sapiens, UniProt Q16816)",cell-free assay,71%
"Mitogen-activated protein kinase 9 (MAPK9, Homo sapiens, UniProt P45984)",cell-free assay,84%
"Tyrosine-protein kinase receptor UFO (AXL, Homo sapiens, UniProt P30530)",cell-free assay,69%
"Cyclin-dependent kinase 3 (CDK3, Homo sapiens, UniProt Q00526)",cell-free assay,100%
"Testis-specific serine/threonine-protein kinase 1 (TSSK1B, Homo sapiens, UniProt Q9BXA7)",cell-free assay,100%
"Mitogen-activated protein kinase 12 (MAPK12, Homo sapiens, UniProt P53778)",cell-free assay,100%
"Fibroblast growth factor receptor 3 (FGFR3, Homo sapiens, UniProt P22607, G697C)",cell-free assay,89%
"Serine/threonine-protein kinase Nek9 (NEK9, Homo sapiens, UniProt Q8TD19)",cell-free assay,98%
"Tyrosine-protein kinase ITK/TSK (ITK, Homo sapiens, UniProt Q08881)",cell-free assay,100%
"Mitogen-activated protein kinase 10 (MAPK10, Homo sapiens, UniProt P53779)",cell-free assay,94%
"Peripheral plasma membrane protein CASK (CASK, Homo sapiens, UniProt O14936)",cell-free assay,94%
"Serine/threonine-protein kinase PAK 3 (PAK3, Homo sapiens, UniProt O75914)",cell-free assay,100%

# Study 3
# Target: Mitogen-activated protein kinase kinase kinase kinase 5 (MAP4K5, Homo sapiens, UniProt Q9Y4K4)
# Sequence of UniProt Q9Y4K4 (whole entry, looked up): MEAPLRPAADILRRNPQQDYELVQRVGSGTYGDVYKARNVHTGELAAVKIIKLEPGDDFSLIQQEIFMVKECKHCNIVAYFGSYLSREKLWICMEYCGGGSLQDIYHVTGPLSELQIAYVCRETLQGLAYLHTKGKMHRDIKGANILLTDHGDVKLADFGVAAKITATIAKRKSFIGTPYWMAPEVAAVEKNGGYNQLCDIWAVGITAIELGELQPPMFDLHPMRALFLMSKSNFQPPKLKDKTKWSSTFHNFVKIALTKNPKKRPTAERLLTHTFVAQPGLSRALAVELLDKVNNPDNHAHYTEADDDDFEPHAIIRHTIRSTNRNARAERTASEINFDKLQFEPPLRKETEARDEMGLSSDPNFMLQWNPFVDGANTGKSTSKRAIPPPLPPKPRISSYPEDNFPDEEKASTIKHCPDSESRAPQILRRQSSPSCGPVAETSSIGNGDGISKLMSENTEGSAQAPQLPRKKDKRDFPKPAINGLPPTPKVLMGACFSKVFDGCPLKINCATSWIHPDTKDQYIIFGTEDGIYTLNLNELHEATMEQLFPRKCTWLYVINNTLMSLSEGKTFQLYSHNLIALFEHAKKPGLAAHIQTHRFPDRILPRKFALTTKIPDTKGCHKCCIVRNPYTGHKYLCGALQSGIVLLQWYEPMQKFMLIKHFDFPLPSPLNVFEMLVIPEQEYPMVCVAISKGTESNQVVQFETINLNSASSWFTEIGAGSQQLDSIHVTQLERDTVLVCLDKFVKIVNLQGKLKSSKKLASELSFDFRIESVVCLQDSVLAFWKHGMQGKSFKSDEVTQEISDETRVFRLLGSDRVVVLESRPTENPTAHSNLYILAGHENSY
# Observed: enzyme activity
# Action: inhibitor
# Tested at: 0.5 µM
# Reference: control
Structure (SMILES),remaining activity [%]
Fc1ccc(-c2nc3n(c2-c2ccncc2)CCS3)cc1,98.7
COc1cc(Nc2c(C#N)cnc3cc(OCCCN4CCN(C)CC4)c(OC)cc23)c(Cl)cc1Cl,1.73
Cc1ccc(NC2=CC(=O)c3sc(C)nc3C2=O)cc1,96.9
Oc1ccc(Nc2nc(-c3ccc(Cl)cc3)cs2)cc1,110
Nc1ncnc2c1cnn2-c1ccccc1,87.2
O=C1NC(=O)C(c2c[nH]c3ccccc23)=C1c1c[nH]c2ccccc12,87.1
CCCC(=O)Oc1ccc2[nH]c(C(=O)c3cc4ccccc4[nH]3)cc2c1,88
O=C1Cc2c([nH]c3ccc([N+](=O)[O-])cc23)-c2ccccc2N1,15.9
CC(=O)c1ccc(N2CCOCC2)cc1O,102
COc1ccc(S(=O)(=O)N(CCO)c2ccccc2CN(C)CC=Cc2ccc(Cl)cc2)cc1,99.7
Nc1nc(Nc2ccc(S(N)(=O)=O)cc2)nn1C(=O)c1c(F)cccc1F,45.3

# Study 4
# SMILES: O=C1CCC(N2Cc3cc(C4CCN(Cc5ccccc5)CC4)ccc3C2=O)C(=O)N1 (stereo not shown)
# Target: CRBN/Zinc finger protein Helios (Homo sapiens, UniProt Q96SW2+Q9UKS7)
# Sequence of UniProt Q96SW2 (whole entry, looked up): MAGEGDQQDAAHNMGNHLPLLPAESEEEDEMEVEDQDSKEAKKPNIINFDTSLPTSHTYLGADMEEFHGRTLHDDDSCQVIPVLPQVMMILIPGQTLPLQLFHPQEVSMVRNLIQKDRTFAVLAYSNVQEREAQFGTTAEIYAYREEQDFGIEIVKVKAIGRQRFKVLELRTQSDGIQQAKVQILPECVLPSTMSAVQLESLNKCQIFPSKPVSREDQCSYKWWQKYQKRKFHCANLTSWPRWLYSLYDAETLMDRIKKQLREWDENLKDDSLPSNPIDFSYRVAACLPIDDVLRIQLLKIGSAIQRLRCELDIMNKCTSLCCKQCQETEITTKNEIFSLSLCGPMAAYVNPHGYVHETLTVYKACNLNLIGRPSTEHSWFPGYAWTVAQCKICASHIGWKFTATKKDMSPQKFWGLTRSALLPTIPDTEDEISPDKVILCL
# Sequence of UniProt Q9UKS7 (whole entry, looked up): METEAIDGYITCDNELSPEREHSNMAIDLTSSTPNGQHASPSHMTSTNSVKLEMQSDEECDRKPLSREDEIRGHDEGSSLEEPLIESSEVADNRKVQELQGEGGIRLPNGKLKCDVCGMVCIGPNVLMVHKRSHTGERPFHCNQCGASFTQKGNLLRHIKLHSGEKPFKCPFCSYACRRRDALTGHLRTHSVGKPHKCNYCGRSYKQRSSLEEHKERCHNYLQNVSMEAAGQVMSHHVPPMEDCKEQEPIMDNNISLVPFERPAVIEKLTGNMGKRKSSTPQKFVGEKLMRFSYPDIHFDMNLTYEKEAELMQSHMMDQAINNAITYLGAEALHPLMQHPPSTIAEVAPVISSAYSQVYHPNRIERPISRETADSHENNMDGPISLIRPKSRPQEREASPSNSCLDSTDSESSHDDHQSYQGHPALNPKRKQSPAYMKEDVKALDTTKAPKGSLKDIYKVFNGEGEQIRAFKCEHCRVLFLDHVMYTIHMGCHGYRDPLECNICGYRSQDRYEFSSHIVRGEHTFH
# Action: degrader
# Method: HiBiT kinetics
# Cells: HEK293
conditions,protein remaining [%]
"0.4572 nM, 0.5 h",100
"1000 nM, 0.5 h",85.8
"4.115 nM, 6 h",40.9
